Measured values collected from several papers.
A part holds a random share of what one study measured. Changes are numbered by the printed parent chain.

Series 1
Target: Fragile X messenger ribonucleoprotein 1, C-terminal low-complexity region (Fmr1, Mus musculus, UniProt P35922)
Technique: RNA Bind-n-Seq
Molecule type: RNA
Medium: in vitro
Concentration: 200 nM
Setting: whole 134-nt RNA, ends assumed
Added: 150 mM KCl
Relative to: input library
Reading: higher = stronger binding
Sequence | log2 enrichment
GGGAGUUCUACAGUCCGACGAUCUUCCUCAAGUCCUGUGCUACACAUCGUAUGUACCGAAUCGGAGGAGGAGGGAAAGUAUUAUGUUACGCCGUUCGGAUCUGCACUUCCAGCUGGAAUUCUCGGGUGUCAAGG | -0.727
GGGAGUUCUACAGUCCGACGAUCUAGCUAAACUAAUGUCAACUUAUUUCCUUUUUUCCUUUAGCCACCAUCAAAGAACAGACGAGAGAGAACAGAACUGAAGCCUGAUUUCUUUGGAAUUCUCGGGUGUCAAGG | -0.68
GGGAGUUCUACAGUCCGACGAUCACCAUGCAGGUGGGCAUCUUUGGGAAGUCGGGCAAGGGGGGGAUAGGGAGGGGGGUAACACUUUGGGAACAGGUGGUCCCAGGUCGUUUCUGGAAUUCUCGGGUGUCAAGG | 1.11
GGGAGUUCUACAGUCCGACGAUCAGUCCUGUGCUACACAUCGUAUGUACCGAAUCGGCCCCGGGGCCCCGGGGCCCCGGGGAAAGUAUUAUGUUACGCCGUUCGGAUCUGCACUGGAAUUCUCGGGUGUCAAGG | -1.56
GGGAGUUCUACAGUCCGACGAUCCACAGACAACACGCACCCACACAGACACAGAAGGAAGGGGUUGGGAUGGGGACAGGGUGCACAGCAGGGCGGGGUAGGACCCCAGCCCCUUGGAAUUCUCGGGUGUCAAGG | 1.25
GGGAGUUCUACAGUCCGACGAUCGCAGGAAGUAAAAACAAAUGGAAAUGCUUCGGAUAAAGGCAGGGGUGGGGGUUGCUAAGGAAAGGGUGGGAUGGGAGUGGGUAAAGAGUUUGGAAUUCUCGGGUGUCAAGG | 0.443
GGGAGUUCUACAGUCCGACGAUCUGGGAGGUGGAUUUUGUUUAUUUUUUUAGCUCGUUUCCAGGGGUGGGAAUUUUUUUUUAAUAUGUGUCAUGAAUAAAGUUGUUUUUGAAAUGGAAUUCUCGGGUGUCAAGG | 0.359
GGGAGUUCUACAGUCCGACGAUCUGGCCCUGGUGGCAUGCGGGGAGGAAGAGGUGGCCUCAUGGAUCGUGGUGGUCCCGGUGGAAUGUUCAGAGGUGGCGGUGGUGGAGACAGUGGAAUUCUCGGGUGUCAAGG | 0.301
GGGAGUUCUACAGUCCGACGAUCGUCCUGUGCUACACAUCGUAUGUACCGAAUCGGGUUUUGGGGUUUUGGGGUUUUGGGGAAAGUAUUAUGUUACGCCGUUCGGAUCUGCACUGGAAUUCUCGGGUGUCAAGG | 0.397

Series 2
Target: CCNB3, cyclin fold, Cln2 fusion (human)
Technique: yeast growth competition, sequencing
Medium: yeast
Setting: weak parent motif
Relative to: not given
Reading: higher = stronger binding
Starting sequence: PKN2 docking peptide (human); VSAVQKLDFSDTM
Substitution | normalised enrichment score
S10I | 0.343
K6R | 0.0648
K6Y | 0.222
T12I | 0.254
K6L | 0.385
K6D | 0.24

Series 3
Target: ABI1, truncated, D143A, DHFR fusion (Arabidopsis thaliana)
Technique: DHFR PCA, deep sequencing
Medium: yeast
Setting: methotrexate growth selection, single substitutions
Added: (+)-ABA 1.4 µM
Relative to: wild-type fitted maximum
Reading: higher = stronger binding
Starting sequence: PYL1, truncated, DHFR fusion (Arabidopsis thaliana); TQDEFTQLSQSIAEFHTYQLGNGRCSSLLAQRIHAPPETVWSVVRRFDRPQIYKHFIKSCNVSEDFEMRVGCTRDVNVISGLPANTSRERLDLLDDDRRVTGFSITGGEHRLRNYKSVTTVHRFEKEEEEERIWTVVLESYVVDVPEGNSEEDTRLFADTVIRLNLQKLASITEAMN
Substitution | relative binding score
S42N | 55.9%
T106D | 6.79%
L8I | 9.68%
T39K | 53.3%
R88S | 43.1%
D144Y | 7.78%
F47C | -1.77%

Single results of other studies
Molecule | target | test | system | setting | how to read | endpoint | value
PhoQ, residues 284 288 289 292 302 303 SLSVQF | PhoP, residues 12 14 15 18 19 DLLYY (Escherichia coli, UniProt P23836) | Sort-seq, item: YFP reporter | E. coli | PhoQ-PhoP variant library, added: 10 µM Mg2+ | relative to: high Mg2+ state, higher = stronger signaling | fold induction | 0.409

Some of these lines once more (series 2):
Substitution | normalised enrichment score
K6Y | 0.222
T12I | 0.254
